Assay results of several laboratories.
Values joined by “and” are separate records of one study, mostly repeats; a detail may differ. ± marks the error that the study gave.
FLP: Female-specific lacrimal gland protein (FLP, Mesocricetus auratus, UniProt Q99MG7)
UniProt Q99MG7, sequence (whole entry, looked up): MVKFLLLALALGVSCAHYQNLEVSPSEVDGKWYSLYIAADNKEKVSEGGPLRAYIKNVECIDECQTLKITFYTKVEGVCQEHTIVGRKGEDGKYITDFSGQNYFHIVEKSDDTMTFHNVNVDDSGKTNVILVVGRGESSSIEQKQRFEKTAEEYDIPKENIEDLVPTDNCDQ
sfhI: sfhI (Serratia fonticola, UniProt Q9RMI1)
CYP2E1: Cytochrome P450 2E1 (CYP2E1, Homo sapiens, UniProt P05181)
UniProt P05181, sequence (whole entry, looked up): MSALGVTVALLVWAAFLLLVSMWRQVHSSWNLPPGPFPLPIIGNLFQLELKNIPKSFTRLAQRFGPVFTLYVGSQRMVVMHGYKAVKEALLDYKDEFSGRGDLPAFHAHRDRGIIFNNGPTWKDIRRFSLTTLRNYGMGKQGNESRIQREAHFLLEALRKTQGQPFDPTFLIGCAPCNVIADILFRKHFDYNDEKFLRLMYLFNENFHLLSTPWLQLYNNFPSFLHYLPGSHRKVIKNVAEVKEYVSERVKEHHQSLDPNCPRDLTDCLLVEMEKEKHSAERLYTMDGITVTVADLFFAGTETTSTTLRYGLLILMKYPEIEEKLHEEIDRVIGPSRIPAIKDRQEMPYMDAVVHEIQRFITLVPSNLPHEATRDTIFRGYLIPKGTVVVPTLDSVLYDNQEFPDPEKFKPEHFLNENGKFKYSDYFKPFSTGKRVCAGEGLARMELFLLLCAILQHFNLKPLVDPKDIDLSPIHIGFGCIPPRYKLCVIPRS
Tmem97: Sigma intracellular receptor 2 (Tmem97, Rattus norvegicus, UniProt Q5U3Y7)
UniProt Q5U3Y7, sequence (whole entry, looked up): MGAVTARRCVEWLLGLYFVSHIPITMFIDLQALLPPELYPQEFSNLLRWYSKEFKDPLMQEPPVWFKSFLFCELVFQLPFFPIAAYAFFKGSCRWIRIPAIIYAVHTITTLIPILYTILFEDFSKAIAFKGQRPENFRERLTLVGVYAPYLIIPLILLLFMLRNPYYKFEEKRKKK
Lrrk2: Leucine-rich repeat serine/threonine-protein kinase 2 (Lrrk2, Mus musculus, UniProt Q5S006)
UniProt Q5S006, sequence (whole entry, looked up): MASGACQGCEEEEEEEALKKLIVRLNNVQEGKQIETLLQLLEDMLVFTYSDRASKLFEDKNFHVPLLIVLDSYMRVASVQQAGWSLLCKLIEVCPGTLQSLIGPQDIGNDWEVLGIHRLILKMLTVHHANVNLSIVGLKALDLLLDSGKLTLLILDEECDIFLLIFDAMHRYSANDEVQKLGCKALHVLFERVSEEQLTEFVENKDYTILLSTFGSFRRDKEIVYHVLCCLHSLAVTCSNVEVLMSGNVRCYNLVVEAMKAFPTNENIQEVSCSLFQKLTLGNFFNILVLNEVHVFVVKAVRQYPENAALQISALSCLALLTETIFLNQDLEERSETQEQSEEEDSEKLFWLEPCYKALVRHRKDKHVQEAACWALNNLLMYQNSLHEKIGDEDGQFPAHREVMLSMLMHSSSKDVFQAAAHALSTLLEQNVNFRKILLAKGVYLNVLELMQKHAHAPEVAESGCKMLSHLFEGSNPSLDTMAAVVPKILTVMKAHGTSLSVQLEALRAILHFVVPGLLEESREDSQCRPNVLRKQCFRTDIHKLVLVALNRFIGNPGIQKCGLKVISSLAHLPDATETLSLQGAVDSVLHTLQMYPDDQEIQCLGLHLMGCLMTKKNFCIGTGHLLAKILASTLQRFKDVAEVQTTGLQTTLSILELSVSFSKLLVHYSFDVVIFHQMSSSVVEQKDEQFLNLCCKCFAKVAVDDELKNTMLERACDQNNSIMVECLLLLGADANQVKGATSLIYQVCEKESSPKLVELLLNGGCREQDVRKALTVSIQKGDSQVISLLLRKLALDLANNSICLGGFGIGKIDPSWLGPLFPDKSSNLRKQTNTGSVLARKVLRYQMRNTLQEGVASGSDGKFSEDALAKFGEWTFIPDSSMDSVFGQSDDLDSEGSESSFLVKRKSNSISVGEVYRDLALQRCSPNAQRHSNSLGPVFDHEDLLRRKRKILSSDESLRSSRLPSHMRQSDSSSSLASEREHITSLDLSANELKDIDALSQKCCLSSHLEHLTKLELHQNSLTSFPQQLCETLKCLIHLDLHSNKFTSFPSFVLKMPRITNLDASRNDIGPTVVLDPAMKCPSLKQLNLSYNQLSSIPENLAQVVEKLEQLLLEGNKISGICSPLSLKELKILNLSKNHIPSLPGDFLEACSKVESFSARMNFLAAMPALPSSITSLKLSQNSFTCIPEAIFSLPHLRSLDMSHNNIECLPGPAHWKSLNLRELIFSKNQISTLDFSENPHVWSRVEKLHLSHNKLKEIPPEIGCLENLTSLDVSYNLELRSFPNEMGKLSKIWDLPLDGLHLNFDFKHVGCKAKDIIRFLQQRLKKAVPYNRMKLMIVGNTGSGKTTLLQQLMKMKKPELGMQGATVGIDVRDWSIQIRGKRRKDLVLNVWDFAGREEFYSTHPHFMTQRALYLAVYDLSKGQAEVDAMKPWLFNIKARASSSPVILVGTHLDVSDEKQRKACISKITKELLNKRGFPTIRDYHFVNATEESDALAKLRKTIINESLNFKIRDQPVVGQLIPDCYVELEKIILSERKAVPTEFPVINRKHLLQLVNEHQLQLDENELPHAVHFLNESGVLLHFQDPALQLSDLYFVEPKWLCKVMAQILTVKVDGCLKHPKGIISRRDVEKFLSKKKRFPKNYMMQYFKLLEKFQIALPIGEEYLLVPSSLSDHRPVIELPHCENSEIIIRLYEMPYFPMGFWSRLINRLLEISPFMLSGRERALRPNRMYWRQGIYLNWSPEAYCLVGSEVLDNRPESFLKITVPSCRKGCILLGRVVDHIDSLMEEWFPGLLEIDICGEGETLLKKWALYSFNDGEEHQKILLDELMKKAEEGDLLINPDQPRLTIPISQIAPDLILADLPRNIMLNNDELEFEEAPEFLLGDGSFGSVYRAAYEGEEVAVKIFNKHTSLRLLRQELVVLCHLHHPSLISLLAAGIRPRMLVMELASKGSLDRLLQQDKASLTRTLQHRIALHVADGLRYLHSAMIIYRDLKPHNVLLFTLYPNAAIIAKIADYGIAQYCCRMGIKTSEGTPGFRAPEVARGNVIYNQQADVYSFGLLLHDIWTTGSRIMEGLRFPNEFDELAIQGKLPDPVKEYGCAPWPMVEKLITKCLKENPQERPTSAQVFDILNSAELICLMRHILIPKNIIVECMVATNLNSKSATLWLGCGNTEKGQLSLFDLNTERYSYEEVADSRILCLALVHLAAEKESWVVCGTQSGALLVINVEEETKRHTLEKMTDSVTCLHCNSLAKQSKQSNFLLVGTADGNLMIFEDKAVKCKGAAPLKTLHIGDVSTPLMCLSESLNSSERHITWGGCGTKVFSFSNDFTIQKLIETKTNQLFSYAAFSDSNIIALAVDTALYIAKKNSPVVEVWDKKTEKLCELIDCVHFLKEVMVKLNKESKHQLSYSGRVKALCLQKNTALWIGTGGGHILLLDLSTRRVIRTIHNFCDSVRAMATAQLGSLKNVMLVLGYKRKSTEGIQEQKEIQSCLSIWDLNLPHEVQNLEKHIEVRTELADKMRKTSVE
Replicase polyprotein 1ab main protease: Replicase polyprotein 1ab, main protease (Feline coronavirus, UniProt Q98VG9)
UniProt P04062, sequence (whole entry, unmodified, looked up): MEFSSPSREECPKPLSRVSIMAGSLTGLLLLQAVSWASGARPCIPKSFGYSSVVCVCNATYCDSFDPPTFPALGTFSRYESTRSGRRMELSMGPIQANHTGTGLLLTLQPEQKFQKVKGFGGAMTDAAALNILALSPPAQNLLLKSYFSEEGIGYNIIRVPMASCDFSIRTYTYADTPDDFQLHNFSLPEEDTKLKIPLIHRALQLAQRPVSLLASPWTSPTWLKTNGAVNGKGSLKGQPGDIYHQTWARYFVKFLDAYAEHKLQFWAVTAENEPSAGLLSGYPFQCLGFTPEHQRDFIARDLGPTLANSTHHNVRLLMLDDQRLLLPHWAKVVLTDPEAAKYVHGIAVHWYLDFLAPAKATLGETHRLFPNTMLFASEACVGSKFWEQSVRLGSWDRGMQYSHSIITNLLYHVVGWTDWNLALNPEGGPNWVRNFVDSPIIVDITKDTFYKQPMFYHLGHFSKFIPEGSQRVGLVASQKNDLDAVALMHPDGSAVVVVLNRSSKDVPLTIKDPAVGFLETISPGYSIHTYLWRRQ
UniProt Q9H7Z6, sequence (whole entry, looked up): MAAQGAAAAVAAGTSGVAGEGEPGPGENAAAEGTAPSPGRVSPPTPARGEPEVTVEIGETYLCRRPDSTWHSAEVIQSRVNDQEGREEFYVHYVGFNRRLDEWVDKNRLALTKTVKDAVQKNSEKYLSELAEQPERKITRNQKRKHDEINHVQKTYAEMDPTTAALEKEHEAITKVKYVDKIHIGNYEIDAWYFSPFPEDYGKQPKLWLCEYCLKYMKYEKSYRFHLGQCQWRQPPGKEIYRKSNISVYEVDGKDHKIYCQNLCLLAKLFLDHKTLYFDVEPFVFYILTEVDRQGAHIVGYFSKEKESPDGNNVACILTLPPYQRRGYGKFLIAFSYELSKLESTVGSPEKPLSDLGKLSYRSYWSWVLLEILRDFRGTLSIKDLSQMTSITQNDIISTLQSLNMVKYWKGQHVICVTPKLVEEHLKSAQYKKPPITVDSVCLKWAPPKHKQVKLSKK
UniProt Q03041, sequence (whole entry, unmodified, looked up): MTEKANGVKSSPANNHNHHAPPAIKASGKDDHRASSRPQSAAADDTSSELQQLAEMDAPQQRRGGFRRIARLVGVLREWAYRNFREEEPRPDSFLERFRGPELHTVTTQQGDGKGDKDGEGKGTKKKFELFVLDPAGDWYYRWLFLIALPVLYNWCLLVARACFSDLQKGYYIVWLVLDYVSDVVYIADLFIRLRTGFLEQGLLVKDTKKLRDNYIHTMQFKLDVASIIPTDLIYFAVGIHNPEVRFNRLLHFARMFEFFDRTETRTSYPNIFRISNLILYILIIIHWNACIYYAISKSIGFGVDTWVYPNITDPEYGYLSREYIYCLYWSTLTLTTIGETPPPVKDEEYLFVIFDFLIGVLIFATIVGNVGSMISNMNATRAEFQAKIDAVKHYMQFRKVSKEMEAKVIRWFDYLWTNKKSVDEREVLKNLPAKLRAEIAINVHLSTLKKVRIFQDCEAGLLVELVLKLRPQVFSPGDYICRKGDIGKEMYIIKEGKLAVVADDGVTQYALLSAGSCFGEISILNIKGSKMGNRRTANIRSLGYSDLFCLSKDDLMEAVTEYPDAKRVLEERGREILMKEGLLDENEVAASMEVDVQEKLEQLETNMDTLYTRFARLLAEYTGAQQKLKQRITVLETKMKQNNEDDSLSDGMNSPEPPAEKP

OC[C@H]1OC(O)[C@H](O)[C@@H](O)[C@@H]1O (some centres unmarked)  Ki (beta-glucosidase (Penicillium italicum); non-competitive inhibitor; up to 6 mM, pH 4.5, 60 °C, added: pNP-glucoside): 8900 µM
CCCCCCC=O  Ki (FLP; binding, fluorescence displacement; added: 1-NPN 2 µM): 11.4 µM
CCOC(=O)[C@@]1(CS)N[C@@H](C(=O)O)CS1  Ki (sfhI; enzyme activity, inhibitor; pH 7.5, 30 °C, added: imipenem substrate): 20 ± 2 µM
O=c1cn[nH]c(=O)[nH]1  Ki (uracil transporter; uracil uptake, inhibitor; Trypanosoma brucei brucei, bloodstream form; 30 s, added: 0.15 µM [3H]-uracil): 663 ± 125 µM
CC(=O)N[C@H]1[C@H](O[C@H]2[C@H](O)[C@@H](NC(C)=O)C(O)O[C@@H]2CO)O[C@H](CO)[C@@H](O)[C@@H]1O (some centres unmarked)  Ki (Lysozyme C (LYZ, Gallus gallus, UniProt P00698); enzyme activity, inhibitor, fluorescence): 450 µM
Nc1ncnc2c1ncn2[C@@H]1O[C@H](COP(=O)(O)OP(=O)(O)OP(=O)(O)O)[C@@H](O)[C@H]1O  Ki (GTP:AMP phosphotransferase AK3, mitochondrial (AK3, Homo sapiens, UniProt Q9UIJ7); inhibitor): 1700 µM
O=c1[nH]ccc(=S)[nH]1  Ki (uracil transporter; uracil uptake, inhibitor; Trypanosoma brucei brucei, bloodstream form; 30 s, added: 0.15 µM [3H]-uracil): 159 ± 24 µM
CCCCCCC=O  Ki (CYP2E1; competitive inhibitor; human liver S9; 30 min, pH 7.4, added: p-nitrophenol substrate): 32 ± 1 µM
O=C(O[C@@H]1Cc2c(O)cc(O)cc2O[C@@H]1c1cc(O)c(O)c(O)c1)c1cc(O)c(O)c(O)c1  Ki (Solute carrier family 22 member 6 (Rattus norvegicus, UniProt O35956); transporter uptake, inhibitor): 595 µM
C=Cc1ccccc1  Ki (CYP2E1; inhibitor; 30 min, pH 7.4): 1100 µM
CC1=NN(c2ccc(C(=O)O)cc2)C(=O)/C1=C/c1ccc(-c2cc(C)c(C)cc2[N+](=O)[O-])o1  Ki (Histone acetyltransferase KAT8 (KAT8, Homo sapiens, UniProt Q9H7Z6); enzyme activity, inhibitor; up to 400 µM, added: 4 µM acetyl-CoA, 60 µM histone substrate): no inhibition
CCOC(=O)[C@@]1(CS)N[C@@H](C(=O)O)C(C)(C)S1  Ki (sfhI; enzyme activity, inhibitor; pH 7.5, 30 °C, added: imipenem substrate): 130 ± 10 µM
O=C(c1ccc(SCCF)cc1)C1CCN(C2Cc3ccccc3CC2O)CC1 (racemic)  Ki (Tmem97; ligand displacement, radioligand): > 1 µM
O=C(OCc1ccccc1)c1ccccc1  Ki (FLP; binding, fluorescence displacement; added: 1-NPN 2 µM): 6.43 µM
CN(C)CCC=C1c2ccccc2C=Cc2ccccc21  Ki (5-hydroxytryptamine receptor 2A (HTR2A, Homo sapiens, UniProt P28223); ligand displacement, radioligand): 0.029 µM
Nc1ncnc2c1ncn2[C@@H]1O[C@H](COP(=O)(O)OP(=O)(O)O)[C@@H](O)[C@H]1O  Ki (Lrrk2; enzyme activity, inhibitor, TR-FRET; Ki,eb, added: PLK-peptide varied): 300 ± 100 µM
CCCN(CCC1(O)CC(NC(=O)c2ccc(-c3noc(C)n3)cc2)C1)[C@H]1CCc2nc(N)sc2C1 (stereo in doubt)  Ki (dopamine D2-like receptor, rat; radioligand binding; rat striatal membranes; high-affinity component, added: [3H]spiperone): 14.6 ± 1.28 µM
CCCCC/C=C/C=O  Ki (CYP2E1; competitive inhibitor; human liver S9; 30 min, pH 7.4, added: p-nitrophenol substrate): 4.1 ± 0.1 µM
N#Cc1c(-c2cccs2)[n+]([O-])c2cc(S(N)(=O)=O)ccc2[n+]1[O-]  Ki (Carbonic anhydrase 12 (CA12, Homo sapiens, UniProt O43570)): 0.178 ± 0.013 µM
[Ca+2]  Ki (Cyclic nucleotide-gated channel alpha-2 (CNGA2, Bos taurus, UniProt Q03041, E340G); single-channel current, blocker, outside-out patch; E340G mutant, +80 mV, added: cGMP 1 mM): 32000 µM
CCCN(CC[C@]1(O)C[C@@H](NS(=O)(=O)c2ccc(F)cc2)C1)[C@H]1CCc2nc(N)sc2C1 (relative stereo)  Ki (dopamine D2-like receptor, rat; radioligand binding; rat striatal membranes; high-affinity component, added: [3H]spiperone): 0.789 ± 0.036 µM
COc1cc(O)c2c(=O)cc(-c3ccc(O)c(O)c3)oc2c1  Ki (Replicase polyprotein 1ab main protease; enzyme activity, inhibitor, fluorescence): 16.7 µM
CCCn1c(=O)n(CCCCN2CCN(c3ccc(F)cc3)CC2)c2ccccc21  Ki (rat NMDA receptor PCP site; rat brain membranes; added: [3H]TCP): > 10 µM
COc1cc(Cl)c(S(=O)(=O)N2CCCCC2)cc1Cl  Ki (Melanopsin (OPN4, Homo sapiens, UniProt Q9UHM6); binding, competition binding; CHO-Opn4 cell membranes; added: tritiated 2-isomer, 300 pM): 0.00043 ± 5e-05 µM
Nc1ncnc2c1ncn2[C@@H]1O[C@H](COP(=O)(O)OP(=O)(O)NP(=O)(O)O)[C@@H](O)[C@H]1O  Ki (Lrrk2; enzyme activity, inhibitor, TR-FRET; Ki,e, added: ATP varied, PLK-peptide substrate): 300 ± 30 µM
O=C1C(=O)N(Cc2ccc(Cc3ccc(CN4C(=O)C(=O)c5ccccc54)cc3)cc2)c2ccccc21  Ki (Replicase polyprotein 1ab main protease; enzyme activity, inhibitor, fluorescence): 5.8 µM
CCCCCCCCCCCCNC(=O)[C@@H]1CCCN1C(=O)[C@@H]1CCCN1  Ki (Coagulation factor XI (F11, Homo sapiens, UniProt P03951); enzyme activity, inhibitor): > 1000 µM
CCCCCCCCCCCCCCCCCCNCCCc1ccc([N+](=O)[O-])cc1  Ki (Tmem97; [3H]-DTG displacement; rat liver membranes; added: (+)-pentazocine 100 nM): 9 ± 0.4 µM
OC[C@@H]1[C@@H](O)[C@H](O)[C@@H](O)CN1CCCCCOCC12CC3CC(CC(C3)C1)C2  Ki (bglA (Thermotoga maritima, UniProt Q08638); enzyme activity, inhibitor, Lineweaver-Burk; pH 6.8, 25 °C, added: p-nitrophenyl β-D-glucopyranoside): 4.97 µM
O=c1ccn([C@H]2CC[C@@H](CO)O2)c(=O)[nH]1  Ki (uracil transporter; uracil uptake, inhibitor; Trypanosoma brucei brucei, bloodstream form; 30 s, added: 0.15 µM [3H]-uracil): 2260 ± 540 µM
CCCN(CC[C@]1(O)C[C@@H](NC(=O)c2cccc(F)c2)C1)[C@H]1CCc2nc(N)sc2C1 (relative stereo)  Ki (dopamine D2-like receptor, rat; radioligand binding; rat striatal membranes; high-affinity component, added: [3H]spiperone): 0.264 ± 0.046 µM
C[C@H]1O[C@@H](n2ccc(=O)[nH]c2=O)[C@H](O)[C@@H]1O  Ki (uracil transporter; uracil uptake, inhibitor; Trypanosoma brucei brucei, bloodstream form; 30 s, added: 0.15 µM [3H]-uracil): > 2500 µM
C=CC(C)CCCC(C)(C)O (centres unmarked)  Ki (FLP; binding, fluorescence displacement; added: 1-NPN 2 µM): 8 µM
Cn1ccc(=O)[nH]c1=O  Ki (uracil transporter; uracil uptake, inhibitor; Trypanosoma brucei brucei, bloodstream form; 30 s, added: 0.15 µM [3H]-uracil): > 5000 µM
CCCN(CCC1(O)CC(NC(=O)c2ccc(F)c(Cl)c2)C1)[C@H]1CCc2nc(N)sc2C1 (stereo in doubt)  Ki (dopamine D2-like receptor, rat; radioligand binding; rat striatal membranes; high-affinity component, added: [3H]spiperone): 6.95 ± 1.09 µM
Nc1nc2c(c(=O)[nH]1)C[C@@H](CCc1ccc(C(=O)N[C@@H](CCC(=O)O)C(=O)O)cc1)CN2  Ki (Serine hydroxymethyltransferase, cytosolic (SHMT1, Homo sapiens, UniProt P34896); enzyme activity, inhibitor, absorbance): 20 µM
CCCN(CCC1(O)CC(NC(=O)c2ccccc2)C1)[C@H]1CCc2nc(N)sc2C1 (stereo in doubt)  Ki (dopamine D2-like receptor, rat; radioligand binding; rat striatal membranes; high-affinity component, added: [3H]spiperone): 0.224 ± 0.009 µM
OC[C@@H]1[C@@H](O)[C@H](O)[C@@H](O)[C@@H]2O[C@H]12  Ki (Lysosomal acid glucosylceramidase (GBA1, Homo sapiens, UniProt P04062, R534H); enzyme activity, irreversible inhibitor; pH 5.2, 37 °C, added: 2,4-DNP-β-Glc): 9.2 µM and 9 µM

A few entries again:
CCCCCCCCCCCCCCCCCCNCCCc1ccc([N+](=O)[O-])cc1  Ki (Tmem97; [3H]-DTG displacement; rat liver membranes; added: (+)-pentazocine 100 nM): 9 ± 0.4 µM
OC[C@@H]1[C@@H](O)[C@H](O)[C@@H](O)CN1CCCCCOCC12CC3CC(CC(C3)C1)C2  Ki (bglA (Thermotoga maritima, UniProt Q08638); enzyme activity, inhibitor, Lineweaver-Burk; pH 6.8, 25 °C, added: p-nitrophenyl β-D-glucopyranoside): 4.97 µM
